{"data": "Published values from different studies", "note": "Protocols differ between the studies behind these lines. ± gives the spread as reported."}
{"Compound": "C[C@@H]1O[C@@H](O[C@H]2[C@H](Oc3cc(O)c4c(c3)O[C@H](c3ccc(O)cc3)CC4=O)O[C@H](CO)[C@@H](O)[C@@H]2O)[C@H](O)[C@H](O)[C@H]1O", "test": "mass spectrometry", "system": "Caco-2", "setting": "40 µM, 6 h", "endpoint": "Papp A→B", "value": "1.35 ×10⁻⁶ cm/s"}
{"Compound": "C[C@@H]1CN(c2c(F)c(N)c3c(=O)c(C(=O)O)cn(C4CC4)c3c2F)C[C@H](C)N1", "system": "male Hartley guinea pig, anaesthetized", "setting": "intravenous infusion, 30 mg/kg, 10 min infusion", "how to read": "baseline: baseline", "endpoint": "QTc change", "value": "20 ± 3.3%"}
{"Compound": "O=C(O)C[C@H](O)C[C@H](O)/C=C/c1c(C2CC2)nc2ccccc2c1-c1ccc(F)cc1", "system": "male Sprague Dawley rat, NASH, plasma", "setting": "oral, 2.5 mg/kg, geometric mean, with: vehicle", "endpoint": "AUC(0-27 h)", "value": "9.1 µM·h"}
{"Compound": "Cc1c(Cl)cccc1Nc1ccccc1C(=O)O", "test": "shake-flask", "system": "soybean oil", "setting": "37 °C", "endpoint": "thermodynamic solubility", "value": "3.81 ± 0.23 mg/g"}
{"Compound": "N[C@@H](CC(=O)N1CCn2c(nnc2C(F)(F)F)C1)Cc1cc(F)c(F)cc1F", "system": "healthy Korean subjects, plasma", "setting": "oral, 100 mg single dose, ABCB1 G2677T/A AA", "endpoint": "AUC(0-2 h)", "value": "633 ng·h/mL"}
{"Compound": "CS(=O)(=O)OC[C@H](O)[C@@H](O)COS(C)(=O)=O", "system": "Wistar rat, female, red blood cell lysate", "setting": "intraperitoneal, 500 mg/kg, 4 h", "endpoint": "concentration", "value": "74 µM"}
{"Compound": "CC(C)C[C@H](N)C(=O)N1CCC[C@H](NCC(=O)N2CCC[C@H]2C(N)=O)C1", "test": "capillary electrophoresis-MS", "system": "water", "endpoint": "pKa2", "value": 8.53}
{"Compound": "COc1ccc2c(c1)c(CC(=O)O)c(C)n2C(=O)c1ccc(Cl)cc1", "test": "shake-flask", "system": "PEG400", "setting": "37 °C", "endpoint": "thermodynamic solubility", "value": "135 ± 11.3 mg/g"}
{"Compound": "CC1(C)C2CCC1(C)C(OC(=O)C(O)Cc1ccc(O)c(O)c1)C2 (stereo not shown)", "system": "Sprague-Dawley rat, plasma", "setting": "intravenous, 6 mg/kg", "endpoint": "clearance", "value": "269 mL/min/kg"}
{"Compound": "Cn1cc(C[C@H](N)C(=O)O)c2ccccc21", "system": "domestic pig, inguinal region", "setting": "sc, 1 g daily for five days", "endpoint": "skin temperature", "value": "39.1 ± 0.1 °C"}
{"Compound": "O=C1N=C(N2CCOCC2)CN1c1ccc(Cl)cc1", "system": "beagle dog, both sexes, plasma", "setting": "oral, 30 mg/kg, day 0, tablets, single dose", "endpoint": "apparent oral clearance", "value": "4.75 mL/min/kg"}
{"Compound": "CC(=O)Oc1ccccc1C(=O)O", "system": "male Hartley guinea pig, anaesthetized", "setting": "intravenous infusion, 3 mg/kg, 10 min infusion", "how to read": "baseline: baseline", "endpoint": "QTc change", "value": "1.3 ± 0.6%"}
{"Compound": "O=C(O)[C@H](c1ccccc1Cl)N1CCc2sccc2C1", "test": "HPLC-MS/MS", "system": "feline citrate plasma", "setting": "24 h, -20 °C, storage stability", "endpoint": "deviation from nominal", "value": "10%"}
{"Compound": "O=C(c1cc(Cc2n[nH]c(=O)c3ccccc23)ccc1F)N1CCN(C(=O)C2CC2)CC1", "system": "human patients, plasma", "setting": "oral, 400 mg twice daily, day 2, with: pegylated liposomal doxorubicin", "endpoint": "AUC(0-10 h)", "value": "35200 ± 17100 ng·h/mL"}
{"Compound": "CNc1nc(Nc2ccc(-n3cnc(C)n3)c(OC)c2)nc2c1CC[C@H]2c1ccc(F)cc1", "system": "human, plasma", "setting": "oral, 1200 mg, single dose, healthy volunteers", "endpoint": "AUC(0-inf)", "value": "52200 ng·h/mL"}
{"Compound": "C[C@H](Oc1ccc(-c2nc(-c3ccc4[nH]cnc4c3)no2)cc1C(F)(F)F)C(F)(F)F", "system": "cynomolgus monkey, aneurysm model, plasma", "setting": "0.1 mg/kg once daily, 8 h post-dose, 4 weeks dosing", "endpoint": "plasma concentration", "value": "0.022 ± 0.0038 µM"}
{"Compound": "CC(C)/N=c1\\cc2n(-c3ccc(Cl)cc3)c3ccccc3nc-2cc1Nc1ccc(Cl)cc1", "test": "shake-flask", "system": "PEG400", "setting": "37 °C", "endpoint": "thermodynamic solubility", "value": "13.2 ± 0.61 mg/g"}
{"Compound": "Nc1nc(NC2CC2)c2ncn([C@H]3C=C[C@@H](CO)C3)c2n1", "test": "equilibrium dialysis", "system": "cellulose membrane, cell-free", "setting": "pH 7.4, no Pluronic P85", "endpoint": "effective permeability", "value": "125 ± 23 ×10⁻⁶ cm/s"}
{"Compound": "C[C@]12CC[C@@H]3c4ccc(O)cc4CC[C@H]3[C@@H]1C[C@@H](O)[C@@H]2O", "test": "GC-MS", "system": "breast cancer women on NSAI, serum", "setting": "vaginal, 0.03 mg daily, 1 h, day 28", "endpoint": "maximum serum concentration", "value": "0.0144 ng/mL"}
{"Compound": "NC(=O)N1c2ccccc2C=Cc2ccccc21", "test": "shake-flask", "system": "soybean oil", "setting": "37 °C", "endpoint": "thermodynamic solubility", "value": "1.42 ± 0.16 mg/g"}
{"Compound": "Cc1cc(Nc2ncc(Cl)c(Nc3ccccc3S(=O)(=O)C(C)C)n2)c(OC(C)C)cc1C1CCNCC1", "test": "measured: total drug", "system": "patients, plasma", "setting": "oral, 750 or 450 mg/day, geometric mean", "endpoint": "AUC(tau) at steady state", "value": "22.8 µM·h"}
{"Compound": "CCCC[C@H](NC(C)=O)C(=O)N[C@H]1CCC(=O)NC[C@@H](C(=O)N[C@@H](Cc2c[nH]c3ccccc23)C(N)=O)NC(=O)[C@H](CCCNC(=N)N)NC(=O)[C@@H](Cc2ccccc2)NC(=O)[C@H](Cc2c[nH]cn2)NC1=O", "system": "male rat, plasma", "setting": "subcutaneous, 1 mg/kg/day, multiple doses, once daily", "endpoint": "CL/F", "value": "17.5 mL/min/kg"}
{"Compound": "O=C(O)c1cc(/N=N/c2ccc(S(=O)(=O)Nc3ccccn3)cc2)ccc1O", "test": "shake-flask", "system": "polysorbate 80", "setting": "37 °C", "endpoint": "thermodynamic solubility", "value": "11.4 ± 0.63 mg/g"}
{"Compound": "CC(C)=CCc1c(O)c(CC=C(C)C)c2oc3c(O)cccc3c(=O)c2c1O", "system": "Balb/c nu/nu mice, HT-29 xenograft, tumour tissue", "setting": "oral, 901 mg/kg xanthones in diet, 4 weeks after implantation", "endpoint": "free tumour concentration", "value": "540 ± 40 ng/g"}
{"Compound": "C=CC(N)CCC(=O)O (stereo not shown)", "system": "male Sprague-Dawley rat, plasma", "setting": "oral, 1.0 mg/kg, formulation 3, with: low-fat infant formula 1500 mg/kg", "endpoint": "Tmax (median)", "value": "40.2 min"}
{"Compound": "CS/C(S)=N/CCCC[S+](C)[O-] (racemic)", "test": "RT-PCR, measured: Cyp3a23/1", "system": "rat, colon", "setting": "oral gavage, 200 mg/kg, dosed for four days", "how to read": "baseline: vehicle", "endpoint": "mRNA fold change", "value": 0.121}
{"Compound": "[2H]C([2H])([2H])Oc1cc2c(cc1OC([2H])([2H])[2H])C1CC(=O)C(CC(C)C)CN1CC2 (stereo not shown)", "test": "measured: deuterated total (α+β)-HTBZ", "system": "healthy human volunteers, plasma", "setting": "oral, 6 mg single dose, standard meal", "endpoint": "dose-normalized AUC(0-inf)", "value": "20.8 ng·h/mL"}
{"Compound": "COc1cc2c(=O)c(-c3ccc(O)cc3)coc2cc1O[C@@H]1O[C@H](CO)[C@@H](O)[C@H](O)[C@H]1O", "system": "human, urine", "setting": "oral, dose not given, 5 h", "endpoint": "urine concentration", "value": "5.48 µg/mL"}
{"Compound": "COc1ccc2c(O[C@@H]3C[C@H]4C(=O)N[C@]5(C(=O)NS(=O)(=O)C6CC6)C[C@H]5/C=C\\CCCCN(C)C(=O)[C@@H]4C3)cc(-c3nc(C(C)C)cs3)nc2c1C", "system": "Caco-2", "endpoint": "Papp A→B", "value": "0.19 ×10⁻⁶ cm/s"}
{"Compound": "CCCC[C@@H]1NC(=O)[C@@H](NC(=O)[C@H](CCC(=O)O)NC(=O)CNC(=O)CN2CCN(CC(=O)O)CCN(CC(=O)O)CCN(CC(=O)O)CC2)CCCCNC(=O)C[C@@H](C(N)=O)NC(=O)[C@H](C(C)C)NC(=O)[C@@H]2CCCN2C(=O)[C@H](CCCNC(=N)N)NC(=O)CNC(=O)[C@H](Cc2c[nH]c3ccccc23)NC(=O)[C@H](CCCNC(=N)N)NC(=O)[C@@H](Cc2ccccc2)NC(=O)[C@H](Cc2c[nH]cn2)NC(=O)[C@H](CCC(=O)O)NC1=O [indium-111 labelled]", "system": "C57 mice, B16/F10 lung metastatic melanoma, blood", "setting": "intravenous, 0.037 MBq, 2 h", "endpoint": "tissue uptake", "value": "0.12 ± 0.05 %ID/g"}
{"Compound": "COc1ccc2nc([S@@+]([O-])Cc3ncc(C)c(OC)c3C)[nH]c2c1", "system": "human healthy", "setting": "40 mg, general disorders", "endpoint": "adverse events", "value": "0%"}
{"Compound": "CC(C)[C@H](NC(=O)[C@@H]1CCCN1C(=O)[C@H](CCCNC(=N)N)NC(=O)[C@H](CS)NC(=O)[C@H](Cc1c[nH]c2ccccc12)NC(=O)[C@H](CCCNC(=N)N)NC(=O)[C@@H](Cc1ccccc1)NC(=O)[C@H](Cc1c[nH]cn1)NC(=O)[C@H](CCC(=O)O)NC(=O)[C@H](CS)NC(=O)[C@H](CS)NC(=O)[C@H](CCCCN)NC(=O)[C@@H]1CC(=O)N[C@@H](CCCNC(=N)N)C(=O)N[C@@H]([C@@H](C)O)C(=O)N[C@@H](CC(=O)O)C(=O)N[C@H](Cc2ccc(O)cc2)C(=O)N1)C(N)=O [technetium-99m labelled]", "system": "C57 mouse, B16/F1 melanoma, kidneys", "setting": "dose not given, 2 h, with: L-lysine 15 mg co-injected", "endpoint": "tissue uptake", "value": "60.7 ± 12.1 %ID/g"}
{"Compound": "C[C@](N)(Cc1ccc(O)c(O)c1)C(=O)O", "system": "supercritical carbon dioxide", "setting": "5 h, 313 K, 24 MPa, density 873.9 kg/m3", "endpoint": "solubility", "value": "231 µg/mL"}
{"Compound": "CCCCC1(CCCC)CN(c2ccccc2)c2cc(SC)c(OCC(=O)N[C@@H](C(=O)NCC(=O)O)c3ccccc3)cc2S(=O)(=O)C1", "system": "human, plasma", "setting": "oral, 5 mg once daily, day 1, geometric mean", "endpoint": "AUC(0-t)", "value": "0.559 ng·h/mL"}
{"note": "A few entries again:"}
{"Compound": "C[C@@H]1CN(c2c(F)c(N)c3c(=O)c(C(=O)O)cn(C4CC4)c3c2F)C[C@H](C)N1", "system": "male Hartley guinea pig, anaesthetized", "setting": "intravenous infusion, 30 mg/kg, 10 min infusion", "how to read": "baseline: baseline", "endpoint": "QTc change", "value": "20 ± 3.3%"}
{"Compound": "Cc1cc(Nc2ncc(Cl)c(Nc3ccccc3S(=O)(=O)C(C)C)n2)c(OC(C)C)cc1C1CCNCC1", "test": "measured: total drug", "system": "patients, plasma", "setting": "oral, 750 or 450 mg/day, geometric mean", "endpoint": "AUC(tau) at steady state", "value": "22.8 µM·h"}
